Published values collected from several papers.
Every numbered part comes from another study and shows a few of its results, in no order. Positions count from the first letter of the parent shown.

Series 1
Target: ABI1, truncated, D143A, DHFR fusion (Arabidopsis thaliana)
Method: DHFR PCA, deep sequencing
Medium: yeast
Setting: methotrexate growth selection, single substitutions
Added: (+)-ABA 1.4 µM
Reference: wild-type fitted maximum
Reading: higher = stronger binding
Quantity: relative binding score
Starting sequence: PYL1, truncated, DHFR fusion (Arabidopsis thaliana); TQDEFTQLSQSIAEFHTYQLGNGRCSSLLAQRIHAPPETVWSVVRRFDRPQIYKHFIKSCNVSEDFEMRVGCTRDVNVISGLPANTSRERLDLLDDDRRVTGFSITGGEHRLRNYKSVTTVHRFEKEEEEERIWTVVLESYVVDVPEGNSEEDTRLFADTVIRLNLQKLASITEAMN
E139C: 42.2%
N114F: -7.72%
Y18Q: 15.1%
V76D: -2.59%
E109N: 66.4%
E64N: 53.5%
R32I: 41.7%
G107S: 24.4%
I12H: 22.6%
D159K: -16.5%
I52C: 32.3%
A175T: 48.9%
S80Q: -3.23%
P37I: 29.1%
E64K: 60%
P50E: -18.2%
L91K: 3.62%

Series 2
Target: CCND2, cyclin fold, Cln2 fusion (human)
Method: yeast growth competition, sequencing
Medium: yeast
Setting: weak parent motif
Reference: not given
Reading: higher = stronger binding
Quantity: normalised enrichment score
Starting sequence: E2F1 docking peptide (human); PPVKRRLDLETDH
R6G: 0.188
D12F: 0.428
K4Y: -0.62
D8E: -0.221
L7S: 0.0621
E10C: 0.203
R5W: 0.262
D8K: 0.0533
D12C: -0.0606
L9F: 1.75
T11K: 0.588
D8F: 0.25
V3Y: 0.279
R6W: 0.223

Series 3
Target: Prothrombin, mature alpha-thrombin (F2, Homo sapiens, UniProt P00734)
Method: aptamer microarray, sandwich
Molecule type: DNA with 2'F-ANA
Medium: in vitro
Concentration: 200 nM
Setting: whole 15-mer aptamer, many near background
Added: Cy3 exosite-II aptamer, 400 nM
Reading: higher = stronger binding
Quantity: mean fluorescence intensity
Sequence: GGTTGGTGTGGTTGG
2'F-ANA at 1 2 4 5 6 10 11 12 14 15: 283 a.u.
2'F-ANA at 1 4 5 6 7 8 12 13 15: 75.9 a.u.
2'F-ANA at 8 10 12 13 14: 113 a.u.
2'F-ANA at 1 3 7 9 12 13: 466 a.u.
2'F-ANA at 1 2 3 5 7 8 10 11 12 13 15: 125 a.u.
2'F-ANA at 1 2 3 4 6 9 11 12: 256 a.u.
2'F-ANA at 1 10 11 13 14 15: 53.9 a.u.
2'F-ANA at 6 7 10 11 14: 106 a.u.
2'F-ANA at 1 2 4 5 6 8 9 10: 49.9 a.u.
2'F-ANA at 1 3 5 8 9 15: 69.3 a.u.
2'F-ANA at 1 3 4 7 9 10 14 15: 54.2 a.u.
2'F-ANA at 1 3 6 8 9 12 13 14 15: 113 a.u.
2'F-ANA at 1 7 8 9 12: 428 a.u.
2'F-ANA at 1 4 7 13 15: 90.3 a.u.
2'F-ANA at 4 5 6 9 13 14 15: 46.8 a.u.
2'F-ANA at 2 5 6 7 10 11 12 13 14 15: 54.7 a.u.
2'F-ANA at 2 4 9 11 12 13: 338 a.u.
2'F-ANA at 1 2 3 4 5 6 8 10 12 13 14 15: 48.6 a.u.
2'F-ANA at 2 6 7 9 10 11: 115 a.u.
2'F-ANA at 1 2 3 5 9 11 12 13 14: 46.7 a.u.
2'F-ANA at 4 6 7 9 10 13 15: 66.6 a.u.
2'F-ANA at 2 5 6 8 9 10 12 13 15: 69.1 a.u.

Other studies, line by line
PhoQ, residues 284 288 289 292 302 303 SSCLAV
fold induction (PhoP, residues 12 14 15 18 19 NQCAL (Escherichia coli, UniProt P23836); Sort-seq, item: YFP reporter; E. coli; PhoQ-PhoP variant library, added: 10 µM Mg2+; reference: high Mg2+ state, higher = stronger signaling): 17.4

For quick reference, copied from above (series 2):
D8K: 0.0533
D12C: -0.0606
L9F: 1.75
T11K: 0.588
